# Published values of several laboratories.
# Values joined by “and” are separate records of one study, mostly repeats; a detail may differ. Numbers after ± are the reported error.
SMILES,assay,test system,conditions,how to read,endpoint,result
CCc1ccc(CC/C=C/c2ccc3c(c2)C(=O)CC3)cc1,,"Sprague-Dawley rat, female","oral, 120 mg/kg/day, 14 days",,Phosphorus,2.41 mM
COc1ccc(-c2c(-c3ccc(C#N)c(F)c3)nc(N3CCC(N)CC3)n(C)c2=O)cc1F,measured: Thrombocytopenia,relapsed/refractory marginal zone lymphoma patients,"oral, 60 mg, grade 3 to 4, dose expansion",,treatment-related adverse event incidence,0%
O=C(c1ccc(F)c(F)c1Nc1ccc(I)cc1F)N1CC(O)([C@@H]2CCCCN2)C1,,human patients,"oral, 1 mg/kg, age ≥18 years",,treatment-related AE causing dose modification,100%
COc1ncnn2ccc(-c3cnc4nc(C)n(Cc5nnc([C@@H](C)F)o5)c4c3)c12,,human patients,"oral, dose not given, grade 1 adverse drug reaction",,incidence of Hypotension,7.1%
C=CC(=O)N[C@H]1C=C(C)c2c(-c3cnc4ccccc4c3)c3c(N)ncnc3n2C1,two-compartment PK model,"mouse, plasma","oral, dose not given",,central volume of distribution,0.317 L
CCCCCOc1ccc(-c2ccc(-c3ccc(C(=O)N[C@H]4C[C@@H](O)[C@@H](OCC[N+](C)(C)C)NC(=O)[C@@H]5[C@@H](O)[C@@H](C)CN5C(=O)[C@H]([C@@H](C)O)NC(=O)[C@H]([C@H](O)[C@@H](O)c5ccc(O)cc5)NC(=O)[C@@H]5C[C@@H](O)CN5C(=O)[C@H]([C@@H](C)O)NC4=O)cc3)cc2)cc1,,"adult ICU patients, mITT, serum","dose not given, day 30",,magnesium,0.7 mmol/L
O=C(c1cc2cccnc2n1-c1ccc(Cl)c(Cl)c1)N1CC(F)(F)C1,,mouse,"intravenous, 5 mg/kg",,mean residence time,1.57 h
C[C@@H](NC(=O)N1C(=O)[C@H](Cc2ccnc(N)c2)[C@H]1C(=O)O)C1CCCCC1,,healthy adult Chinese volunteers,"continuous intravenous infusion, 1.0 mg/kg/h, 5-day infusion, CTCAE 5.0 grading",,incidence of abnormal liver function,0%
CC1(C)C(/C=C(\Cl)C(F)(F)F)C1C(=O)OC(C#N)c1cccc(Oc2ccccc2)c1 (stereo not shown),measured: CYP2B6,"human, age 1 year",,,enzyme contribution to clearance,0.32%
COc1cc([C@@H]2c3cc4c(cc3[C@H](O)[C@H]3COC(=O)[C@H]23)OCO4)cc(OC)c1OC,osmotic fragility,human erythrocytes,20 µM,,mean erythrocyte fragility,0.75%
COc1ncccc1-c1cnn2ccc(N3CCN(C(=O)OC(C)C)CC3)nc12,,"mouse, open field test, brain","oral, 10 mg/kg, 60 min",,drug concentration,14 µM
CO[C@H]1C[C@@H]2CC[C@@H](C)[C@@](O)(O2)C(=O)C(=O)N2CCCC[C@H]2C(=O)O[C@H]([C@H](C)C[C@@H]2CC[C@@H](OC(=O)NCCOCCOCCOCCOCCOCCOCCOCCOCCC(=O)N3CCc4cc(Cn5nc(-c6ccc7oc(N)nc7c6)c6c(N)ncnc65)ccc4C3)[C@H](OC)C2)C[C@@H](O)[C@H](C)/C=C(\C)[C@@H](O)[C@@H](OC)C(=O)[C@H](C)C[C@H](C)/C=C/C=C/C=C/1C,"phase 1 dose escalation, measured: neutropenia",advanced solid tumour patients,"intravenous, 6 mg weekly, grade ≥3",,dose-reducing adverse events,0%
CC(=O)NCC(=O)NCC(=O)N[C@H](C(=O)N[C@@H](Cc1ccc(O)cc1)C(=O)N[C@@H](CO)C(=O)N[C@H]1CSSC[C@@H](C(=O)N[C@@H](CCCNC(=N)N)C(=O)N2CCC[C@H]2C(=O)N[C@@H](CCC(N)=O)C(=O)N[C@@H](CCCNC(=N)N)C(=O)NCC(=O)NCCC(=O)N[C@@H](CCCCNC(=O)CN(CC(=O)NCCCC[C@H](NC(=O)CCNC(=O)CNC(=O)[C@H](CCCNC(=N)N)NC(=O)[C@H](CCC(N)=O)NC(=O)[C@@H]2CCCN2C(=O)[C@H](CCCNC(=N)N)NC(=O)[C@@H]2CSSC[C@H](NC(=O)[C@H](CO)NC(=O)[C@H](Cc3ccc(O)cc3)NC(=O)[C@@H](NC(=O)CNC(=O)CNC(C)=O)[C@@H](C)O)C(=O)N[C@@H](Cc3c[nH]cn3)C(=O)N[C@@H](Cc3ccccc3)C(=O)NCC(=O)N[C@@H](C)C(=O)N[C@@H](CC(C)C)C(=O)N[C@@H]([C@@H](C)O)C(=O)N[C@@H](Cc3c[nH]c4ccccc34)C(=O)N[C@@H](C(C)C)C(=O)N2)C(N)=O)C(=O)CCN)C(N)=O)NC(=O)[C@H](C(C)C)NC(=O)[C@H](Cc2c[nH]c3ccccc23)NC(=O)[C@H]([C@@H](C)O)NC(=O)[C@H](CC(C)C)NC(=O)[C@H](C)NC(=O)CNC(=O)[C@H](Cc2ccccc2)NC(=O)[C@H](Cc2c[nH]cn2)NC1=O)[C@@H](C)O,,BALB/c mouse,"subcutaneous, 0.08 mg/kg, 0.5 h",,serum concentration,5 ng/mL
c1csc(CNc2cc[nH]n2)c1,micronucleus,"CD-1 mouse Hsd:ICR(CD-1), female, bone marrow","oral, 500 mg/kg/day, 3 days",,PCE to total erythrocyte ratio,0.465
Cc1noc(C)c1Cn1cc(N2C(=O)CN(Cc3cccc(O)c3)C2=O)cn1,,"CD-1 mouse, male, bone marrow","2000 mg/kg/day, 24 h",,PCE proportion,53.6%
Cc1ncnc2c1ccn2[C@@H]1C[C@H](Oc2cc(C(F)F)c(F)c3c2CNCC3)[C@@H](O)[C@H]1O,,patients,"dose not given, any grade",reference: patients,Hypomagnesemia incidence,6%
C[C@]1(CO)Cc2ncn(-c3ccc(C#N)c(Cl)c3)c2C(=O)O1,,healthy humans,"concentration not given, multiple dose part total",,drug-related Hyperhidrosis incidence,2.2%
Cc1cccc(Cn2nc(C3CC3)c3c(NC(=O)c4cnc5cc(OCCN6CCN(C)CC6)ccn45)cccc32)n1,"CTCAE v4.03, measured: blood alkaline phosphatase increased",advanced solid tumour patients,"oral, dose not given, all cohorts, added: pembrolizumab IV every 3 weeks",,all-cause adverse events,15.8%
O=C(O)CCCOc1ccc(F)cc1-c1cc(-c2ccccc2C(F)(F)F)n(-c2ccccc2)n1,,"male Crl:CD(SD) rats, testes","intravenous, 25 µg/kg, 14 d",,relative organ weight,0.76 ± 0.13 g%
CCCSc1ccc2nc(NC(=O)OC)[nH]c2c1,,"mouse, blood","oral, 50 mg/kg, tolerability, mean",,mean corpuscular haemoglobin,17.2 pg
O=c1ccc2ccc3occc3c2o1,post-procedure stability,rat plasma,"200 ng/mL, 1 h, room temperature",,accuracy,80.4%
CC(=O)c1c(C)c2cnc(Nc3ccc(C4CCN(CCS(C)(=O)=O)CC4)cn3)nc2n(C2CCCC2)c1=O,,HR+/HER2- advanced breast cancer patients,"oral, dose not given, grade 3 to 4",,ALT increased,1%
C[C@@H](c1ncncc1F)[C@](O)(Cn1cncn1)c1ccc(F)cc1F,,human,"oral, 400 mg, drug interaction trial",,deaths,0%
CC(C)(O)c1cc(Nc2cc(Oc3cn(C4CC4)nc3C3CCOCC3)ccn2)ccn1,Anemia,"advanced cancer patients, grade 4 glioma expansion","oral, 50 mg twice daily, all causality any grade",,treatment-emergent adverse events,0%
CC(C)Nc1ccnc(Nc2cccc(-c3cccnc3)c2)n1,measured: total protein,"mouse, blood","intraperitoneal, 10 mg/kg",,blood chemistry,5.4 g/dL
CN1CC[C@@H](c2c(O)cc(O)c3c(=O)cc(-c4ccc(C(F)(F)F)cc4Cl)oc23)[C@@H]1CO,measured: Constipation,B-cell malignancies or AML,"oral, 50 mg, continuous dosing",,patients with adverse event,12.5%
O=C(Nc1ccccc1)C1CCN(C(=O)Oc2cccnc2)CC1,Bond-Lader VAS,healthy women,"oral, 60 mg","reference: pre-dose baseline, direction not given",change in Tense-Relaxed score,12
N.N.[Cl][Pt][Cl],,"mouse, serum",dose not given,,blood urea nitrogen,41.7 mg/dL and 32 mg/dL and 32.4 mg/dL
CC(C)[C@@H]1NC(=O)CNC(=O)[C@H](CC(N)=O)NC(=O)[C@H](CCCNC(=N)N)NC(=O)[C@H](Cc2ccc(O)cc2)NC(=O)[C@H](C(C)C)NC(=O)[C@@H](NC(=O)[C@@H](NC(=O)[C@H](CC(N)=O)NC(=O)[C@H](Cc2c[nH]c3ccccc23)NC(=O)[C@H](C)NC(=O)[C@H](Cc2ccccc2)NC(=O)CN)C(C)C)CSSC[C@@H](C(=O)N[C@@H](Cc2cnc[nH]2)C(=O)N[C@@H](CCCNC(=N)N)C(=O)N[C@@H](CCCNC(=N)N)C(=O)N[C@@H](C)C(=O)N[C@@H](CC(N)=O)C(N)=O)NC(=O)[C@H](C(C)C)NC(=O)[C@H](CCCNC(=N)N)NC1=O,,ICR mouse,"ip, 5 mg/kg",direction not given,tremor score,0
CC(C)C(=O)OC[C@H]1O[C@@H](n2ccc(NO)nc2=O)[C@H](O)[C@@H]1O,,rat fetus dialysate,"5 ng/mL, 6 h, 10 °C, low QC concentration, added: NHC 25 ng/mL",,autosampler stability,99.4 ± 2.38%
CC(C)C[C@H](NC(=O)[C@H](CCC(N)=O)NC(=O)[C@H](CO)NC(=O)[C@H](CO)NC(=O)[C@H](CCCNC(=N)N)NC(=O)[C@H](CCCNC(=N)N)NC(=O)[C@H](CCCNC(=N)N)NC(=O)[C@H](CC(C)C)NC(=O)[C@H](Cc1c[nH]cn1)NC(=O)[C@@H](NC(=O)[C@H](CCCCN)NC(=O)[C@H](CCCNC(=N)N)NC(=O)[C@H](CCCNC(=N)N)NC(=O)[C@H](CCCNC(=N)N)NC(=O)[C@H](CCC(N)=O)NC(=O)[C@H](CCCNC(=N)N)NC(=O)[C@H](CCCNC(=N)N)NC(=O)[C@H](CCCCN)NC(=O)[C@H](CCCCN)NC(=O)[C@H](CCCNC(=N)N)NC(=O)CNC(=O)[C@@H](N)Cc1ccc(O)cc1)[C@@H](C)O)C(=O)N[C@@H](CCCCN)C(N)=O,hanging wire test,rat,"intra-CA1 bilateral, dose not given",reference: saline,latency to fall,no effect
[Cl][212Pb][Cl],measured: 212Pb,"athymic mouse, C4-2 prostate xenograft, prostate","intravenous, 2 h",,tissue uptake,1.04 ± 0.36 %ID/g
COc1cc2c(Oc3ccc4[nH]c(C)cc4c3F)ccnc2cc1OCC1(N)CC1,,paediatric recurrent refractory sarcoma,8 mg/kg,,grade 1 or 2 Vomiting,33.3%
Cc1cc(C)c(CNC(=O)c2cc(Cl)c3c(c2C)O[C@@](C)([C@H]2CC[C@H](N(C)C)CC2)O3)c(=O)[nH]1,,"human, relapsed/refractory NHL","concentration not given, treatment-related TEAEs, grade 5",,Pruritus incidence,0%
CC(C)C1CCC(N2CCC(N3C(=O)C(=O)c4ccccc43)CC2)CC1 (stereo not shown),,conscious Sprague-Dawley rat,"intravenous bolus, 30 nmol/kg",,sedation duration,~30 min
Clc1ccc(-c2ccccc2)cc1,,"Sprague-Dawley rats, female, serum","inhalation, 23 µg/rat, 4 h after exposure",,phosphorus,8 ± 1 mg/dL
NCCCC[C@@H]1NC(=O)[C@@H](Cc2c[nH]c3ccccc23)NC(=O)[C@H](c2ccccc2)NC(=O)[C@@H]2C[C@@H](OC(=O)NCCN)CN2C(=O)[C@H](Cc2ccccc2)NC(=O)[C@H](Cc2ccc(OCc3ccccc3)cc2)NC1=O,,"healthy volunteers, female","1950 µg twice daily, 2.0 h, post hoc",,placebo-corrected QTcF change,10.9 ms

# A few entries again:
SMILES,assay,test system,conditions,how to read,endpoint,result
CCCSc1ccc2nc(NC(=O)OC)[nH]c2c1,,"mouse, blood","oral, 50 mg/kg, tolerability, mean",,mean corpuscular haemoglobin,17.2 pg
COc1ncnn2ccc(-c3cnc4nc(C)n(Cc5nnc([C@@H](C)F)o5)c4c3)c12,,human patients,"oral, dose not given, grade 1 adverse drug reaction",,incidence of Hypotension,7.1%
c1csc(CNc2cc[nH]n2)c1,micronucleus,"CD-1 mouse Hsd:ICR(CD-1), female, bone marrow","oral, 500 mg/kg/day, 3 days",,PCE to total erythrocyte ratio,0.465
